Measurements collected from several papers.
Every numbered part comes from another study and shows a few of its results, in no order. Positions count from the first letter of the parent shown.

Study 1
Target: CCNB2, cyclin fold, Cln2 fusion (human)
Method: yeast growth competition, sequencing
Matrix: yeast
Setting: weak parent motif
Relative to: not given
Direction: higher = stronger binding
Endpoint: normalised enrichment score
Parent: SCAPER docking peptide (human); SNARRSLNFGGST
SNARRSLGFGGST [N8G]: 0.209
SNARRSLNFGGDT [S12D]: 0.301
SNARDSLNFGGST [R5D]: 0.143
SNSRRSLNFGGST [A3S]: -0.219
SNARRSLNFGGGT [S12G]: 0.424
SNARRSLNQGGST [F9Q]: 0.144
SDARRSLNFGGST [N2D]: -0.129
YNARRSLNFGGST [S1Y]: 0.641
SNARRSLNFGGSS [T13S]: -0.155
SNARRSLMFGGST [N8M]: 0.328
SNARRSLNTGGST [F9T]: 0.209
SNARRSLNFCGST [G10C]: 0.3
SNARRSWNFGGST [L7W]: 0.238
SNARRSTNFGGST [L7T]: 0.303
SNARRSLNFGGNT [S12N]: 0.963
SNARRSLNFYGST [G10Y]: 0.441
GNARRSLNFGGST [S1G]: 0.17
HNARRSLNFGGST [S1H]: -0.205
SNARRSLRFGGST [N8R]: 0.505
SNARRSLNFKGST [G10K]: 0.379
SNARRKLNFGGST [S6K]: 0.602

Study 2
Target: Interferon regulatory factor 3, full length, phosphomimetic (IRF3, Homo sapiens, UniProt Q14653, residues 1-427, S386D/S396D/S398D/S402D/T404D/S405D)
Method: protein-binding microarray
Molecule type: double-stranded DNA, one strand shown
Matrix: in vitro
Concentration: 2540 nM top
Setting: 60-bp whole probe
With: salmon DNA 0.4 mg/ml
Relative to: random background probes
Direction: higher = stronger binding
Endpoint: fitted relative affinity
Shared flanks, not repeated: GCCTAGCAC … GTCTTGATTCGCTTGACGCTGCTG
Construct (chain): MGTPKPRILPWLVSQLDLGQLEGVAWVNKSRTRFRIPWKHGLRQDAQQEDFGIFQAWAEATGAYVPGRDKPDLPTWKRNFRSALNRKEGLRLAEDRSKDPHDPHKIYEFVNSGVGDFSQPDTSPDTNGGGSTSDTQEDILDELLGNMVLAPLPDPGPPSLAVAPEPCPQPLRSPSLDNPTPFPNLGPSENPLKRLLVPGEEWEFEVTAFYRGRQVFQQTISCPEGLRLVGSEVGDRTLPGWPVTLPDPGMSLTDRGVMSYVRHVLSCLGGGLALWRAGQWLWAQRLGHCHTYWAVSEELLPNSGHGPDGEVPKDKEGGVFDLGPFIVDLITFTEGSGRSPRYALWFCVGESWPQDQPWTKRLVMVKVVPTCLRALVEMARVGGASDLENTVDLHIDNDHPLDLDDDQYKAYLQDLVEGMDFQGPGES
TGCTCCTTCTGACATCAACCCGTGCTA: 1.33 z-score
TCAAACATCTACAATGGCACTGTGCTA: -0.134 z-score
GTAGATATCGGGTATCGATTAGTGCTA: 0.394 z-score
GGATGAAGCGCTTCTCGAGTGGTGCTA: -0.602 z-score
TTAGGTATGGACTATCGGTTAGTGCTA: -0.444 z-score
ATAGGACTGGGTCTCGGTTAGTGCTAG: -0.466 z-score
TTAGGTCTCCTTATCCTTAAGTGCTAG: 2.99 z-score
GACGGTTTCGGTCTCGGGCCGTGCTAG: 8.54 z-score
GACGATATCAGTCTGGAGACGTGCTAG: 0.187 z-score
TTAGGTATCGGGTTTCGGTTTGTGCTA: 5.21 z-score
TACGGTCTCCTTTTCCTGACGTGCTAG: 4.53 z-score
TTAGGGCTCGGTTTCGGTTAGTGCTAG: 4.39 z-score
GACGGTCTCGGTCTCGGGATGTGCTAG: 1.28 z-score
GACGGTCTGGGGACTGGGGACGTGCTA: -0.972 z-score
GACGGTTTCGGTTTCGGTACGTGCTAG: 11.8 z-score
GACTGTCTCGGTATCGGGACGTGCTAG: 1.75 z-score
TTAAGTTTCGACTATCGGTTAGTGCTA: 2.69 z-score
GACGTTTTCGGTTCCGGGACGTGCTAG: 6.48 z-score
GCCGGTTTCGGTTCCGGGACGTGCTAG: 10.8 z-score

Study 3
Target: ABI1, truncated, D143A, DHFR fusion (Arabidopsis thaliana)
Method: DHFR PCA, deep sequencing
Matrix: yeast
Setting: methotrexate growth selection, single substitutions
With: (+)-ABA 58 µM
Relative to: wild-type fitted maximum
Direction: higher = stronger binding
Endpoint: relative binding score
Parent: PYL1, truncated, DHFR fusion (Arabidopsis thaliana); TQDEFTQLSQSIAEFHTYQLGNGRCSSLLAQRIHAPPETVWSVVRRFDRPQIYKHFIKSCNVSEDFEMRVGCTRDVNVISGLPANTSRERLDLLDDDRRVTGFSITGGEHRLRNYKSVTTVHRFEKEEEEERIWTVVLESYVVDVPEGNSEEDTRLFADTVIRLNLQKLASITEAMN
S117T: 5.7%
T1P: 91.2%
R163A: 66.3%
K168N: 92.6%
V145Q: 42.8%
K126N: 96.1%
V44D: -27.4%
N149K: 21%
I57K: -0.494%
H55V: 93.8%
L94N: 19.5%
K168V: 71.4%
S117V: -13.4%
H16L: -3.97%
Y115E: -4.25%
S9C: 73.4%
F124G: 75.8%
Q19G: 87.5%
D48A: 39.3%
R111P: 16.4%
Q7D: 88.3%
E64W: 72.5%
V136D: 19.7%
L91F: -0.761%

Study 4
Target: Histone acetyltransferase KAT6A, winged helix 2, GST fusion (KAT6A, Homo sapiens, UniProt Q92794, residues 85-181)
Method: protein binding microarray
Molecule type: double-stranded DNA, one strand shown
Matrix: in vitro
Concentration: not given
Setting: 8-mer, flanks averaged, mean of 2 arrays, mostly near background
Relative to: not given
Direction: higher = stronger binding
Endpoint: E-score
Target sequence (chain): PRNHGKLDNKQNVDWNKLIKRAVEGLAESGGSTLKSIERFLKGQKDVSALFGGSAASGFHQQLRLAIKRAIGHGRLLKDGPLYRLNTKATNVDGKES
GGAAATAC: -0.0485
AGGTAAAT: -0.0364
AACCCGGG: 0.146
GAGACCGA: -0.00424
GATCAGCA: 0.108
CCCTAGCA: -0.0497
GATCCAAC: -0.0321
AGATCCAA: 0.152
ACCCGCCA: 0.165
CACGAAAG: -0.00743
GCAGTACC: 0.0844
GATCATCA: -0.0404
GCGATCGA: 0.128
CACTATCG: 0.0501
GCCGGTAA: 0.0548
GTAGTACA: -0.174
AAATTTCG: 0.0485
AGCTGGTC: 0.142
CGACACAC: 0.0723
ATAGACAG: 0.0162
AGTTGCAT: -0.0485
GGGCAGTA: -0.0915
AGATCAAT: 0.0188

Study 5
Target: RING finger protein unkempt homolog, zinc fingers 1-6, GST-SBP tag (UNK, Homo sapiens, UniProt Q9C0B0, residues 30-357)
UniProt Q9C0B0, sequence (30-357, looked up): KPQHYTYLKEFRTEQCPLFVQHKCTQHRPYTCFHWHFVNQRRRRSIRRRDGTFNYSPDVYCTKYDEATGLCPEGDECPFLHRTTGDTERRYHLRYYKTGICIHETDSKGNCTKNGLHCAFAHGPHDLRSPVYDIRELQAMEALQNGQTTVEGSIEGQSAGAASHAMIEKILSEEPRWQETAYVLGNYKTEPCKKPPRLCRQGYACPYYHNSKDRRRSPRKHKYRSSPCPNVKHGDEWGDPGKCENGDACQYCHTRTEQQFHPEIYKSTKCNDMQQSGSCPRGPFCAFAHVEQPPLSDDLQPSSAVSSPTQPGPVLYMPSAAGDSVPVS
Method: RNA Bind-n-Seq
Molecule type: RNA
Matrix: in vitro
Concentration: not given
Setting: RNA with constant flanks, ends assumed
Relative to: input RNA pool
Direction: higher = stronger binding
Endpoint: bound/input enrichment
Shared flanks, not repeated: GGGAGUUCUACAGUCCGACGAUC … CAACAGAGGAUUGAGCAUCA
CUGAACAAAAUUACAAAGAAUCUAGGAUUUGGGAUGGGAAUUGAAUUCCGUGAAGGCUCUCCCGUAAUCAAUAGUAAAAAUCAGUACAAGCUAAAGAAAGGGAUGGUUUUUAGCAUCAAU: 1.94 ratio
AAAUUUCCUCUCUUAAAGCCUUCUCCAAAAUUGGCAUCUCUUAUAGAUGGUUCAUCUCCUGUCCGUAUUUUGGUCUGGACCACACAACCUUGGACGAUUCCAGCCAAUGAAGCUGUUUGC: 0.304 ratio
AGGAGGAGGUUUGCAUCACGGAUCAUAGAUAGCCUGUUUAAUACAGUGACCGAUAAGAAGACCGCUAUCUUGGGGUUUGCAUUCAAAAAGGAUACUGGUGAUACCAGAGAAUCCUCCAGU: 0.239 ratio
UUCAUCUCUCAUUUUAUAUGUCCAGAAAUGGCUUUGAAUUUUAAGCAAUUACUAGUUUUAAUCCGCUCUGCCCUCAUGAAGUAUUAUUAUAAUUCACCAUAAACAGCUAUCUGUCUGAAU: 18.2 ratio
CUCAAUACCAUUCCAUUGUUUGUGCAGUUGCUUUAUUCUCCCAUUGAAAAUAUCCAAAGAGCCGCUGCAGGGGUCCUCUGUGAACUUGCUCAGGACAAGGAGGCUGCAGAGGCCAUUGAA: 0.52 ratio
CCUCUCCCUCCAUCCCUCAAAAGAUCUUUAUGCAUUUCCCACUACUCCCUUACUGUCUUUCCGCAUUCAGAGAAAAAGCCAACUUGCUUAAAGAGGAAUCACUUAAAAGGUAGGCAUAUC: 0.585 ratio
CACUUUGGAGCCACCGACCUGGAUGUGGCCAACUUCUACGUGUCACAGCUGCAGACUCCCACCGGUGUGCAAGCAGAGGCGCUGCUCCGAUGUAGUGACAUUAUUUCAUAUACCUUCAAG: 0.233 ratio
UUGUAGAUGGCAUUAUUUGGCUCAGAUUCAUCGUGCCUUGGGCAGAAUGAGGAAAUGUGUAUCCGACGCCUAACUACUGAGGUUCAUACUGAUUUGGUUGUCUUUGAUGGCUGUGACAUG: 0.228 ratio
GAAGAAUUGUAUUUGCAACGGGUAGCAGAAUUGGACAAAAUUACUUAUGAAAGAGACAGUUUCCGACAGGCAUAUGAAGAUCUUCGGAAACAAAGGCUUAAUGAAUUUAUGGCAGGUUUU: 0.364 ratio
CCUGCCUUCUCAUCUUUAUAGUGCCACGAUUUAUACAGUCCUGUGUCUGACCUGUCAUUUCACCGCCUGCAGUUCUUGCCAUUGGCACACUUAGAUUUGUCUUCACCCACCAGCUUCGUU: 0.587 ratio
AUAUCUUUUGUUUUGGCUUGGUUUGAAGAAGGUGAAGAAACAAUUACAGCCUUUGCCGAACCUUUUGUAAUUUUACUCAUAUUAGUAGCCAAUGCAAUUGUGGGUGUAUGGCAGGAAAGA: 0.631 ratio

Study 6
Target: CREB3L1, bZIP domain (human)
Method: DHFR protein complementation
Matrix: yeast
Setting: single substitutions, most at no-binding floor
Relative to: wild-type JUN-FOS pair
Direction: higher = stronger binding
Endpoint: binding fitness
Parent: JUN, bZIP domain (human); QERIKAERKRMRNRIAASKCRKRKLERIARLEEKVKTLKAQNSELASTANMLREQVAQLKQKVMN; partner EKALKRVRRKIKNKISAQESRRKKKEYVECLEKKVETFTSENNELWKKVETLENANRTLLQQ
L38D: -1.18 natural log
L38F: -1.44 natural log
L31N: -1.49 natural log
S47Y: -1.3 natural log
L38C: -1.43 natural log
V56T: -1.31 natural log
E44V: -1.42 natural log
T48I: -1.36 natural log
S43P: -1.49 natural log
V56G: -1.49 natural log
E54I: -1.2 natural log
S43H: -1.17 natural log
R30A: -1.29 natural log
N42F: -1.52 natural log
A57E: -1.45 natural log
L45M: -1.57 natural log
T48W: -1.07 natural log

Study 7
Target: CEP164, C-terminal peptide (human)
Method: DHFR complementation, deep sequencing
Matrix: yeast
Setting: single substitutions, model-inferred values
Relative to: wild type
Direction: higher = weaker binding
Endpoint: binding free energy change
Parent: PDZK1, PDZ domain 2 (human); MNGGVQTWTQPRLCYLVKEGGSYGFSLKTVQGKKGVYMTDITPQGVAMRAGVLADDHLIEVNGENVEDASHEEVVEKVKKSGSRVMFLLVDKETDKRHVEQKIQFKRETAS; partner HNRVKVYRF
A50S: 0.209 kcal/mol
F105S: -0.135 kcal/mol
N2T: -0.145 kcal/mol
H71I: -0.861 kcal/mol
D40E: 0.181 kcal/mol
V36D: 1.45 kcal/mol
Q101T: -0.0413 kcal/mol
K18R: -0.192 kcal/mol
D56C: 0.298 kcal/mol
G63R: 0.21 kcal/mol
E73H: 0.0242 kcal/mol
R49L: 0.325 kcal/mol
M86P: 0.705 kcal/mol
D56H: 0.579 kcal/mol
V78I: 0.101 kcal/mol

Mixed results
PhoQ, residues 284 288 289 292 302 303 NLCILV  fold induction (PhoP, residues 12 14 15 18 19 SMASL (Escherichia coli, UniProt P23836); Sort-seq, measured: YFP reporter; E. coli; PhoQ-PhoP variant library, with: 10 µM Mg2+; relative to: high Mg2+ state, higher = stronger signaling): 16.1

Some of these lines once more (study 3):
V145Q: 42.8%
K126N: 96.1%
V44D: -27.4%
N149K: 21%
I57K: -0.494%
H55V: 93.8%
L94N: 19.5%
K168V: 71.4%
S117V: -13.4%
H16L: -3.97%
Y115E: -4.25%
S9C: 73.4%
F124G: 75.8%
Q19G: 87.5%
D48A: 39.3%
R111P: 16.4%
